{"data": "Results pooled from the literature", "note": "Each numbered part is a random draw from the data of one study; scales do not carry over between parts.", "UniProt Q7L7X3, sequence (whole entry, looked up)": "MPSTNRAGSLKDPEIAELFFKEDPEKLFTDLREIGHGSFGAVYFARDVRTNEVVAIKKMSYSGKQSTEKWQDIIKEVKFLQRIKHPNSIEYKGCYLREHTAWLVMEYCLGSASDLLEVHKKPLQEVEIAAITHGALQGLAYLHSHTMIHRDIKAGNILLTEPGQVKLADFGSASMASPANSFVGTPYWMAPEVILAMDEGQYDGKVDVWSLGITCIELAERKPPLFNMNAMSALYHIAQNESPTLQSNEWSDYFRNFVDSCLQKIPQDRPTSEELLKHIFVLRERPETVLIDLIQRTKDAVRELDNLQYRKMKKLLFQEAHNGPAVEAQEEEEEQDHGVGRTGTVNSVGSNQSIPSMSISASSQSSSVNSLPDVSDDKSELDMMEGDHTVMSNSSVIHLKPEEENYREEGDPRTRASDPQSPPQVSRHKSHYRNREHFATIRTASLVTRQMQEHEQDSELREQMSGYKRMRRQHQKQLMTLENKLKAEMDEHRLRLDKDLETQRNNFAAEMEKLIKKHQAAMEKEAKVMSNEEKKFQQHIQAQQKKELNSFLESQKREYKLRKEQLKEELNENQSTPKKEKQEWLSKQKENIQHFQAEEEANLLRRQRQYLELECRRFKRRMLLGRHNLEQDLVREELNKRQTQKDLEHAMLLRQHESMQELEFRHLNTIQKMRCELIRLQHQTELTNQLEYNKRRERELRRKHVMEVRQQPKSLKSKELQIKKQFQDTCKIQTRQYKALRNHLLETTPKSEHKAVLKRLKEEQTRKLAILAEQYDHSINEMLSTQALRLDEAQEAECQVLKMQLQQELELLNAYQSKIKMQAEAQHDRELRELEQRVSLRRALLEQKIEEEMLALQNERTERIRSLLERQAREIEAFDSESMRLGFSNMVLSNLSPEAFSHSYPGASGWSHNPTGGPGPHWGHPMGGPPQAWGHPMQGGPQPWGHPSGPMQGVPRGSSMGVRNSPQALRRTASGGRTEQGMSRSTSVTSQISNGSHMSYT", "UniProt Q99986, sequence (whole entry, looked up)": "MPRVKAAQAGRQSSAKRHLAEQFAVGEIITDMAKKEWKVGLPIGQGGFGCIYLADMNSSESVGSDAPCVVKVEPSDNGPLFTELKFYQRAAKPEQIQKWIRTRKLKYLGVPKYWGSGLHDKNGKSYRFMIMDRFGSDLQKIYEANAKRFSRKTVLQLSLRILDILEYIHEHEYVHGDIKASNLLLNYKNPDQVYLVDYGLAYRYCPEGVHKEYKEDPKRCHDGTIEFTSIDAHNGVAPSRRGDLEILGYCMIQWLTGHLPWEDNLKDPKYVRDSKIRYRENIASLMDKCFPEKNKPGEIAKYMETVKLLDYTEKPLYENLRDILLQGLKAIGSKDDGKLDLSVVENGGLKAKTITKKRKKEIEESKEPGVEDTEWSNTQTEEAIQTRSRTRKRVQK", "UniProt P15735, sequence (whole entry, looked up)": "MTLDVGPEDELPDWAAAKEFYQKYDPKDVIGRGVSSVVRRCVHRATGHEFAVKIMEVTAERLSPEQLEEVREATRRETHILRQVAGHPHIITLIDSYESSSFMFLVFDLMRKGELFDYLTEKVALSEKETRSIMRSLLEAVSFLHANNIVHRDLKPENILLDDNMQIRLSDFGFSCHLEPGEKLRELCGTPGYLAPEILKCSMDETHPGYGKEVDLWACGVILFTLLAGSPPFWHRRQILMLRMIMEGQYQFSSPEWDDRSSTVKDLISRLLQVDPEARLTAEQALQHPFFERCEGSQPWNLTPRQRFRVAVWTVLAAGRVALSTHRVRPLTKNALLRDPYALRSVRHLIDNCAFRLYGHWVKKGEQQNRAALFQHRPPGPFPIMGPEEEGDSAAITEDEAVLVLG", "UniProt Q6XUX3, sequence (whole entry, looked up)": "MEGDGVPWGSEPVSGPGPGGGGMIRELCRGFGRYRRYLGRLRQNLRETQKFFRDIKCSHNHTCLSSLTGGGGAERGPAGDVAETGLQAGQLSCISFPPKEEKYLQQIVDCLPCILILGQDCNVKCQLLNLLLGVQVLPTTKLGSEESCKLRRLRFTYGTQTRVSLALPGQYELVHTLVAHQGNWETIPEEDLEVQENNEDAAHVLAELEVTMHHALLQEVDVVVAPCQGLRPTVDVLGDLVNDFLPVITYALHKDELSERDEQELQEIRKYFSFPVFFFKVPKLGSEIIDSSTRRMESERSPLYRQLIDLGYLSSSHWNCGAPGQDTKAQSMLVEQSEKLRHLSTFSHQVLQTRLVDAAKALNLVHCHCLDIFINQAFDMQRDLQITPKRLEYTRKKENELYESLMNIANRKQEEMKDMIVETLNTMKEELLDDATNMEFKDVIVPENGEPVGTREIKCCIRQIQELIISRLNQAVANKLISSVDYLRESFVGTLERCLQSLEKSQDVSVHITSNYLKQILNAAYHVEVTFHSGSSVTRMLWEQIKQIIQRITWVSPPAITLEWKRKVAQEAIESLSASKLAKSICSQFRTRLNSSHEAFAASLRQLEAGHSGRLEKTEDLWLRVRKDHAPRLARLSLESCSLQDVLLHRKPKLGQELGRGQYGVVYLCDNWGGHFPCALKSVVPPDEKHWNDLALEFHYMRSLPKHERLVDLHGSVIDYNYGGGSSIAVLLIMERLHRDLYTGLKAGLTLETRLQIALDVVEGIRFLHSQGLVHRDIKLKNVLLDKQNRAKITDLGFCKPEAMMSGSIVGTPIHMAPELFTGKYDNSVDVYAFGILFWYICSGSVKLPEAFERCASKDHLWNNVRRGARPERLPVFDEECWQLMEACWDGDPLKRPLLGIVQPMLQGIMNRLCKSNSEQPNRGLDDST", "UniProt Q04771, sequence (whole entry, looked up)": "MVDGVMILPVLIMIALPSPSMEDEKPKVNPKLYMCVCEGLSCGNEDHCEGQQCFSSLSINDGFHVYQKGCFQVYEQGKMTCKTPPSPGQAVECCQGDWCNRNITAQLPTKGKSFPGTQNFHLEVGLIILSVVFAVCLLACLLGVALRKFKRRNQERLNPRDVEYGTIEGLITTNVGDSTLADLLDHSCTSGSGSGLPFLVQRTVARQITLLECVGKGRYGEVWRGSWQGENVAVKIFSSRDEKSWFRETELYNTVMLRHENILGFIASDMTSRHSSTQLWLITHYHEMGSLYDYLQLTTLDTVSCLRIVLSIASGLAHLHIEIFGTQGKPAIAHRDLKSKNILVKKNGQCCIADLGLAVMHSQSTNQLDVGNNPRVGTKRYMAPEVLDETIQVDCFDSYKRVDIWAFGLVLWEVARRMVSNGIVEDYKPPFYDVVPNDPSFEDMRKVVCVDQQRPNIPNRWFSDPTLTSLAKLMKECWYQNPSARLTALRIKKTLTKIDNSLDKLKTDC", "UniProt P53350, sequence (whole entry, looked up)": "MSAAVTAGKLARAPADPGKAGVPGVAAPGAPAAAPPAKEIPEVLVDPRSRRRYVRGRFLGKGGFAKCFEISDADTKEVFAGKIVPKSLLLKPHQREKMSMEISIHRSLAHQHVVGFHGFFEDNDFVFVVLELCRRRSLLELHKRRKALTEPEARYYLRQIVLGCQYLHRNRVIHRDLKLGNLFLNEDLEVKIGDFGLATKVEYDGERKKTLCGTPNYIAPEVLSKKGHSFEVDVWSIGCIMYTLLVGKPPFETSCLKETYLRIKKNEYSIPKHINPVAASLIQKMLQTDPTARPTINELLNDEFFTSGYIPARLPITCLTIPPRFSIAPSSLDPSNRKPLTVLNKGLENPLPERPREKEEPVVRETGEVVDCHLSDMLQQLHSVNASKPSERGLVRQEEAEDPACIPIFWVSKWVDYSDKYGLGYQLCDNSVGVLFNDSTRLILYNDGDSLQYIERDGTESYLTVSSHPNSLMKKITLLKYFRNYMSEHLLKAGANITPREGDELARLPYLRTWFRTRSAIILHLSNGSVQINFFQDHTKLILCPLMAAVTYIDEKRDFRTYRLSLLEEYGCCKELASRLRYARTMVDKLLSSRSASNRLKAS"}
{"data": "Block 1", "target": "Sodium-dependent noradrenaline transporter (SLC6A2, Homo sapiens, UniProt P23975)", "observed": "cell-free assay", "concentration": "10 µM", "UniProt P23975, sequence (whole entry, looked up)": "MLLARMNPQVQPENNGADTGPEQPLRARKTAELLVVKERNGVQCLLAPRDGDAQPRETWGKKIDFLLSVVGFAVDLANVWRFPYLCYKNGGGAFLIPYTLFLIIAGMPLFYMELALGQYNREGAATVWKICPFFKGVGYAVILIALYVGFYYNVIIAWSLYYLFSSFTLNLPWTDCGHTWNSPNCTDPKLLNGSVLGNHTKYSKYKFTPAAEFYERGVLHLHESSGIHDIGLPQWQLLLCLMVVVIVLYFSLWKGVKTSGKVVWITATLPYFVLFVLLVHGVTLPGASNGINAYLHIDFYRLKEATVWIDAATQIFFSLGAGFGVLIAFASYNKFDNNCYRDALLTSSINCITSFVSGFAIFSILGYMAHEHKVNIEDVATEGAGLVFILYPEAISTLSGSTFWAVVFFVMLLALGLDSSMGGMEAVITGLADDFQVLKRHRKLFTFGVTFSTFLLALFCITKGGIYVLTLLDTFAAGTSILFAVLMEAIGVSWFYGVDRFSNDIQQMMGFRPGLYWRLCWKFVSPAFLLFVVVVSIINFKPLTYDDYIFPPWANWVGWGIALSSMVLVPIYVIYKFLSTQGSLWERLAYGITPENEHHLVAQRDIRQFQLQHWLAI"}
{"SMILES": "O=S(=O)(NC1CCC(c2cc(F)ccc2F)(S(=O)(=O)c2ccc(Cl)cc2)CC1)C(F)(F)F (centres unmarked)", "inhibition": "7.49%"}
{"SMILES": "CN(C)CC#Cc1ccc(OCCCc2sc(N3CCc4cccc(C(=O)Nc5nc6ccccc6s5)c4C3)nc2C(=O)O)c(F)c1", "inhibition": "42.9%"}
{"SMILES": "COc1ccc2cc(OCC3(C(=O)O)CN(C(=O)c4ccc(F)cc4)C3)ccc2c1", "inhibition": "11%"}
{"SMILES": "O=C(c1ccc(F)cc1)N1CC(COc2ccc(Br)cc2)(C(=O)O)C1", "inhibition": "16.8%"}
{"SMILES": "C[C@H](c1ccc(F)cc1)N(Cc1ccc(Cl)c(C(=O)O)c1)C(=O)c1cnc2ccccc2c1", "inhibition": "-9.65%"}
{"SMILES": "O=c1nc(-c2ccccn2)sc2ccccc12", "inhibition": "-0.363%"}
{"SMILES": "CCC(=NO)C(C)=Cc1ccc(F)c(C)c1", "inhibition": "1.14%"}
{"SMILES": "Cc1ncc(-c2cc(Cl)ccc2F)cc1-n1c(=O)n(CC(N)=O)c2ccccc21", "inhibition": "-13.5%"}
{"SMILES": "C[C@@H](NC(=O)Nc1cc2[nH]ncc2c(CO)n1)c1ccccc1", "inhibition": "-9.99%"}
{"SMILES": "O=C(NNS(=O)(=O)c1ccccc1F)c1cc(F)cc(-c2ccccn2)c1", "inhibition": "-15.5%"}
{"SMILES": "CN(c1ccnc(CNc2nc(Nc3ccc4c(c3)CC(=O)N4)ncc2C(F)(F)F)n1)S(C)(=O)=O", "inhibition": "3.15%"}
{"SMILES": "CC(=O)Nc1c(C(C)=O)c(=O)n(C)c2nc(-c3ccc(Cl)cc3Cl)c(-c3ccc(Cl)cc3)cc12", "inhibition": "15.5%"}
{"SMILES": "Cn1cc(Cl)c2c(Oc3c(F)cc(Nc4cc(Cl)nc(N)n4)cc3F)ccnc21", "inhibition": "3.14%"}
{"SMILES": "c1ccc(N2CCN(Cc3nc4ccccc4[nH]3)CC2)nc1", "inhibition": "-14.8%"}
{"SMILES": "CC(=O)Nc1ncc(CN2CCC[C@H](Cc3cc(C)nc(C)c3)C2)s1", "inhibition": "12.7%"}
{"SMILES": "NS(=O)(=O)c1cc(NC(=O)C2(c3ccccc3Cl)CC2)ccc1Oc1cccc(Cl)c1", "inhibition": "22.4%"}
{"SMILES": "CCC(F)(F)c1cc(N2CCC(S(C)(=O)=O)CC2)nc2sc(C(N)=O)c(N)c12", "inhibition": "8.84%"}
{"SMILES": "NS(=O)(=O)c1cc(NC(=O)Cc2ccccc2)ccc1Oc1cccc(Cl)c1", "inhibition": "0.53%"}
{"SMILES": "Cn1nc(C(=O)NCc2ccc(C(=O)O)cc2)cc1-c1ccc2[nH]ccc2c1", "inhibition": "-21.4%"}
{"SMILES": "Nc1nc(NCc2ccccc2)nc(-c2cccc(CO)c2)n1", "inhibition": "8.6%"}
{"SMILES": "CN1CCN(C(=O)C(C)(C)c2ccc(C(=O)Nc3cn4cc(-c5cc(C(C)(C)C)cc(C(C)(C)C)c5)ccc4n3)cc2)CC1", "inhibition": "40.8%"}
{"SMILES": "CCOc1ccc(S(=O)(=O)Nc2ccc(Cl)cc2C#Cc2cnc(C(=O)O)cc2OC)c2ncccc12", "inhibition": "34.4%"}
{"SMILES": "N#CC1(c2ccccn2)CCN(Cc2cc(C(=O)O)c(=O)n3ccccc23)CC1", "inhibition": "24.7%"}
{"SMILES": "NC(=O)c1ccc2nc(-c3ccc(C4(N)CCC4)cc3)c(-c3ccccc3)n2n1", "inhibition": "47.5%"}
{"SMILES": "Cc1ccc(-c2cnc([C@@]3(O)CC[C@H](C(=O)O)C(C)(C)C3)s2)cc1Nc1cccc(C(F)(F)F)n1", "inhibition": "-19.6%"}
{"data": "Block 2", "target": "Eukaryotic initiation factor 4A-I (EIF4A1, Homo sapiens, UniProt P60842)", "observed": "RNA clamping", "technique": "fluorescence polarization", "concentration": "concentration not given", "notes": "mean of two replicates", "together with": "FAM-labelled poly r(AG)8 RNA", "UniProt P60842, sequence (whole entry, looked up)": "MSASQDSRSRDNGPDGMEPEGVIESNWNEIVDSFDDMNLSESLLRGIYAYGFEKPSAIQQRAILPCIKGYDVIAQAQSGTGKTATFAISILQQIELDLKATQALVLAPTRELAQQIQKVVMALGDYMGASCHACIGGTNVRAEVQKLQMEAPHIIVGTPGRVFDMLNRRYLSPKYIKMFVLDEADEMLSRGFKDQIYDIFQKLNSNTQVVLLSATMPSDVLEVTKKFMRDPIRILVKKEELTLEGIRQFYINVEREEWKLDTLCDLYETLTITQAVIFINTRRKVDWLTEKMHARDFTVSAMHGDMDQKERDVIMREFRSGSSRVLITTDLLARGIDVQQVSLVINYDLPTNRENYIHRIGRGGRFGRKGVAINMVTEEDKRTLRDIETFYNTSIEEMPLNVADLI"}
{"Structure (SMILES)": "COc1ccc([C@@]23Oc4cc(OC)cc(OC)c4[C@@]24NC(C)=N[C@@]4(O)[C@H](C(=O)N(C)C)[C@H]3c2ccccc2)cc1", "fluorescence polarization change": "95.4 mP"}
{"Structure (SMILES)": "COC(=O)[C@@H]1[C@@H](c2ccccc2)[C@]2(c3ccc(OC)cc3)Oc3cc(OC)cc(OC)c3[C@@]23OC(c2ccccc2)=N[C@@]13O", "fluorescence polarization change": "-1.5 mP"}
{"Structure (SMILES)": "COc1cc(OC)c2c(c1)O[C@@]1(c3ccc(Br)cc3)[C@H](c3ccccc3)[C@@H](C(=O)N(C)C)[C@@H](O)[C@@]21O", "fluorescence polarization change": "85.9 mP"}
{"Structure (SMILES)": "COc1cc(OC)c2c(c1)O[C@@]1(c3ccc(Br)cc3)[C@H](c3ccccc3)C[C@@H](O)[C@@]21O", "fluorescence polarization change": "26.8 mP"}
{"Structure (SMILES)": "COC(=O)[C@@H]1[C@@H](c2ccccc2)[C@]2(c3ccc(OC)cc3)Oc3cc(OC)cc(OC)c3[C@@]23OC(c2ccc(F)cc2)=N[C@@]13O", "fluorescence polarization change": "22.8 mP"}
{"Structure (SMILES)": "CCOC(=O)[C@H]1[C@@H](c2ccccc2)[C@]2(c3ccc(Br)cc3)Nc3cc(OC)cc(OC)c3[C@@]1(O)[C@H]2O", "fluorescence polarization change": "11.8 mP"}
{"Structure (SMILES)": "COc1ccc([C@@]23Oc4cc(OC)cc(OC)c4[C@]2(O)c2nc(-c4ccc(O)cc4)[nH]c(=O)c2[C@H]3c2ccccc2)cc1", "fluorescence polarization change": "20.3 mP"}
{"Structure (SMILES)": "COc1ccc([C@@]23Oc4cc(OC)cc(OC)c4[C@]2(O)c2nc(-c4ccccc4Cl)[nH]c(=O)c2[C@H]3c2ccccc2)cc1", "fluorescence polarization change": "39.7 mP"}
{"data": "Block 3", "Compound": "O=C1NC(=O)c2c1c1c3ccccc3n3c1c1c2c2ccccc2n1[C@H]1CC[C@@H]3O1", "observed": "enzyme activity", "mode": "inhibitor", "concentration": "0.5 µM", "reference": "control"}
{"target": "Dual specificity tyrosine-phosphorylation-regulated kinase 2 (DYRK2, Homo sapiens, UniProt Q92630)", "remaining activity": "5.94%"}
{"target": "Serine/threonine-protein kinase VRK1 (VRK1, Homo sapiens, UniProt Q99986)", "remaining activity": "90.2%"}
{"target": "Mitogen-activated protein kinase kinase kinase kinase 5 (MAP4K5, Homo sapiens, UniProt Q9Y4K4)", "remaining activity": "2.69%"}
{"target": "Dual serine/threonine and tyrosine protein kinase (DSTYK, Homo sapiens, UniProt Q6XUX3)", "remaining activity": "45.5%"}
{"target": "Serine/threonine-protein kinase D3 (PRKD3, Homo sapiens, UniProt O94806)", "remaining activity": "-0.0451%"}
{"target": "Serine/threonine-protein kinase TAO1 (TAOK1, Homo sapiens, UniProt Q7L7X3)", "remaining activity": "66.9%"}
{"target": "Mitogen-activated protein kinase kinase kinase 9 (MAP3K9, Homo sapiens, UniProt P80192)", "remaining activity": "8.72%"}
{"target": "Serine/threonine-protein kinase PLK1 (PLK1, Homo sapiens, UniProt P53350)", "remaining activity": "50.2%"}
{"target": "Phosphorylase b kinase gamma catalytic chain, liver/testis isoform (PHKG2, Homo sapiens, UniProt P15735)", "remaining activity": "75.6%"}
{"target": "Serine/threonine-protein kinase Sgk3 (SGK3, Homo sapiens, UniProt Q96BR1)", "remaining activity": "71.7%"}
{"target": "Platelet-derived growth factor receptor beta (PDGFRB, Homo sapiens, UniProt P09619)", "remaining activity": "19.1%"}
{"target": "Activin receptor type-1 (ACVR1, Homo sapiens, UniProt Q04771)", "remaining activity": "85.8%"}
{"data": "Block 4", "cell line": "mouse MPNST tumor cells", "technique": "high-content nuclear imaging", "measured": "cell number", "concentration": "10 µM", "time": "12 h", "notes": "mean of 2 replicates", "reference": "plate mean", "reading": "higher = more cells"}
{"Structure (SMILES)": "COc1ccc2c(c1)[C@]13CCCC[C@@H]1[C@H](C2)N(C)CC3", "nuclei count [z-score]": 2.86}
{"Structure (SMILES)": "COCC1(CO)C(=O)C2CCN1CC2 (centres unmarked)", "nuclei count [z-score]": -1.73}
{"Structure (SMILES)": "C=CCN1C[C@H](C)N([C@H](c2ccc(C(=O)N(CC)CC)cc2)c2cccc(OC)c2)C[C@H]1C", "nuclei count [z-score]": 0.499}
{"Structure (SMILES)": "c1ccc(CCCCN2CCC(c3ccccc3)CC2)cc1", "nuclei count [z-score]": -1.11}
{"Structure (SMILES)": "C1CCc2nnnn2CC1", "nuclei count [z-score]": 2.77}
{"Structure (SMILES)": "C[N+]1(C)[C@@H]2CC[C@H]1C[C@@H](OC(=O)C(CO)c1ccccc1)C2 (some centres unmarked)", "nuclei count [z-score]": 1.94}
{"Structure (SMILES)": "CN(C)[C@@H]1C(=O)C(C(N)=O)=C(O)[C@@]2(O)C(=O)C3=C(O)c4c(O)ccc(Cl)c4[C@@](C)(O)[C@H]3C[C@@H]12", "nuclei count [z-score]": 0.487}
{"Structure (SMILES)": "CC12NC(Cc3ccccc31)c1ccccc12 (single isomer, unassigned; (+))", "nuclei count [z-score]": 1.12}
{"note": "Some of these lines once more (block 1):"}
{"SMILES": "NS(=O)(=O)c1cc(NC(=O)Cc2ccccc2)ccc1Oc1cccc(Cl)c1", "inhibition": "0.53%"}
{"SMILES": "Cn1nc(C(=O)NCc2ccc(C(=O)O)cc2)cc1-c1ccc2[nH]ccc2c1", "inhibition": "-21.4%"}
{"SMILES": "Nc1nc(NCc2ccccc2)nc(-c2cccc(CO)c2)n1", "inhibition": "8.6%"}
{"SMILES": "CN1CCN(C(=O)C(C)(C)c2ccc(C(=O)Nc3cn4cc(-c5cc(C(C)(C)C)cc(C(C)(C)C)c5)ccc4n3)cc2)CC1", "inhibition": "40.8%"}
{"SMILES": "CCOc1ccc(S(=O)(=O)Nc2ccc(Cl)cc2C#Cc2cnc(C(=O)O)cc2OC)c2ncccc12", "inhibition": "34.4%"}
{"SMILES": "N#CC1(c2ccccn2)CCN(Cc2cc(C(=O)O)c(=O)n3ccccc23)CC1", "inhibition": "24.7%"}
{"SMILES": "NC(=O)c1ccc2nc(-c3ccc(C4(N)CCC4)cc3)c(-c3ccccc3)n2n1", "inhibition": "47.5%"}
